Measured values of several laboratories.
Compare with care: the assays were run in different laboratories. Values joined by “and” are separate records of one study, mostly repeats; a detail may differ.
Target: cAMP-dependent protein kinase catalytic subunit PRKX (PRKX, Homo sapiens, UniProt P51817)

COCC12C(=O)NC3C4(C(OC)CC1O)C1CC5(O)C(OC)C(O)C(OC(C)=O)(C1C5OC(=O)c1ccccc1)C3(O)C(OC)C24 (stereo not shown)
remaining activity (kinase activity, inhibitor, ProQinase kinase profiling; 25 µM; relative to: control): 101% and 100%

NC(=O)C[C@H]1CCc2sc3ncnc(O[C@H]4CC[C@H](N5CCOCC5)CC4)c3c21
inhibition (enzyme activity, inhibitor; 10 µM): 0%

Nc1ncc(-c2cc(-c3cnn(CC(F)(F)F)c3)ncc2F)nc1C(=O)NC1CNCC(F)C1 (stereo not shown)
remaining activity (enzyme activity; 1 µM; relative to: DMSO control): 91.1%

CNC1C[S+]2CC[S+]3CC[S+](C1)[Ru-4]321([N]=C=S)[n]2c3ccc(OC)cc3c3c4c(c5cc(F)c[n+]1c5c32)C(=O)NC4=O (stereo not shown)
remaining binding (KinomeScan; 0.1 µM; relative to: untreated): 87%

COc1cc(Nc2nc(C)cc(-c3cnn4nc(OC)ccc34)n2)cc(C(F)(F)F)c1
remaining activity (inhibitor; 1 µM; relative to: control): 87%

C=CC(=O)Nc1cccc(-c2cnc3[nH]cc(C(=O)NC(C)(C)C)c3n2)c1
inhibition (kinase activity; 0.1 µM): 2% and 3%

CNC(=O)C[C@H](Cc1ccc(C#N)cc1)NC(=O)c1cc(-c2ccc(CN[C@H](C)c3ccc(C)cc3)o2)ccc1Cl
activity vs control (enzyme activity, inhibitor; 1 µM): 100%

C=CC(=O)N1Cc2nc(-c3cc(-c4cc(Cl)cnc4Cl)c(F)cc3F)n(-c3ccncn3)c2C1
inhibition (cell-free assay, inhibitor; 1 µM): 6.8%

CCN1CCN(Cc2ccc(C(=O)Nc3ccc(C)c(NCc4cnc5[nH]ccc5c4OC)c3)cc2C(F)(F)F)CC1
remaining binding (binding, competition with immobilised ligand; 1 µM): 100%

CC(C)=CC1OC(C)(C)C2C=C3C(=O)C(Cl)=CC(O)C3C3C(O)C4OC4C(=O)C132 (stereo not shown)
remaining binding (cell-free assay, competition with immobilised ligand; 10 µM): 93%

COc1c(Cl)cccc1Nc1c(-c2ccncc2C#C[C@@]2(C)CCCN2C(=O)/C=C/CN(C)C)[nH]c2c1C(=O)NCC2
remaining binding (cell-free assay, competition with immobilised ligand; 3 µM): 100%

Cc1cccc(O[C@H]2CCC[C@@H](C(C)CNCc3ccncc3)C2)c1 (relative stereo)
inhibition (enzyme activity, inhibitor; 1 µM): -1%

Cc1c[nH]c2nccc(-c3ccc(C(=O)N[C@@H]4c5c(F)cc(C(F)F)cc5C[C@@H]4O)cn3)c12
remaining binding (binding, competition with immobilised ligand; 3 µM): 0%

C=CC(=O)N1CCc2ccc(-n3c(=O)ccc4cnc5ccc(-c6cnn(C)c6)cc5c43)cc21
remaining binding (KINOMEscan; 1 µM; relative to: DMSO control): 100%

CCn1cc(C(=O)O)c(=O)c2c(N)c(F)c(NC3CCCCC3)cc21
inhibition (kinase activity; 0.1 µM, together with: ATP at Km): -14.5%

Cc1ccc(-c2c(/C=C(\C#N)C(=O)NC(C)C)n(CCCO)c3ncnc(N)c23)cc1
remaining binding (cell-free assay, competition with immobilised ligand; 1 µM): 72%

A few entries again:
NC(=O)C[C@H]1CCc2sc3ncnc(O[C@H]4CC[C@H](N5CCOCC5)CC4)c3c21
inhibition (enzyme activity, inhibitor; 10 µM): 0%
